Earlier results as cited in several papers.
Each numbered part shows a few of the values that one paper quotes.
Sequence of UniProt P28335 (whole entry, looked up): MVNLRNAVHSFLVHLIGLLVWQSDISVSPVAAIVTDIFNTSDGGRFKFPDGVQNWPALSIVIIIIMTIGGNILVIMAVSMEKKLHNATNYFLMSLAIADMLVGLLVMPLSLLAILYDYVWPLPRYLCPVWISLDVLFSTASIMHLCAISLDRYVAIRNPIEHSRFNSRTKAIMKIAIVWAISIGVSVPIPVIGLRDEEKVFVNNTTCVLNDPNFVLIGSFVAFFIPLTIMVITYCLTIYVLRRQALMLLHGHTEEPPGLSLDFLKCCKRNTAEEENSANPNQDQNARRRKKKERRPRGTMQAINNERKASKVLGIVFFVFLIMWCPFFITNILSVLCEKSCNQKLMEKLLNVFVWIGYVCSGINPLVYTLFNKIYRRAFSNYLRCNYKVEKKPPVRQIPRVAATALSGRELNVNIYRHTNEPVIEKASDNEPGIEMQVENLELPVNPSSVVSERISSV

Series 1
Organism: Cryptosporidium parvum
Technique: high-throughput screen
Tested at: concentration not given
Quantity: activity
CCOc1cc(CC(=O)N[C@@H](CC(C)C)c2ccccc2N2CCCCC2)ccc1C(=O)O: inactive
OCCN(CCO)c1nc(N2CCCCC2)c2nc(N(CCO)CCO)nc(N3CCCCC3)c2n1: inactive
C[C@H](N[C@@H](CCc1ccccc1)C(=O)O)C(=O)N1CCC[C@H]1C(=O)O: inactive
O=C(C1CCCCC1)N1CC(=O)N2CCc3ccccc3C2C1 (centres unmarked): inactive
C=C1/C(=C\C=C2/CCC[C@]3(C)[C@@H]([C@H](C)/C=C/[C@@H](O)C4CC4)CC[C@@H]23)C[C@@H](O)C[C@@H]1O: inactive
CC(C)(C)NCC(O)COc1cccc2c1CC(O)C(O)C2 (centres unmarked): inactive
CSc1ccc2c(c1)N(CCC1CCCCN1C)c1ccccc1S2 (centres unmarked): inactive
CCOC(=O)[C@H](CCc1ccccc1)N[C@@H](C)C(=O)N1[C@H](C(=O)O)C[C@@H]2CCC[C@@H]21: inactive
Cc1cn([C@H]2C=C[C@@H](CO)O2)c(=O)[nH]c1=O: inactive
Cc1[nH]cnc1CN1CCc2c(c3ccccc3n2C)C1=O: inactive
c1ccc2c(CC3=NCCN3)cccc2c1: inactive
Cl.O=C1[C@H]2CCCC[C@H]2C(=O)N1CCCCN1CCN(c2nsc3ccccc23)CC1: inactive
CN1[C@@H](CC(=O)c2ccccc2)CCC[C@H]1C[C@H](O)c1ccccc1.Cl: inactive
CCCCC[C@H](O)/C=C/[C@H]1[C@H](O)CC(=O)[C@@H]1CCCCCCC(=O)O: inactive
C#C[C@]1(O)CC[C@H]2[C@@H]3CCC4=CC(=O)CC[C@@H]4[C@H]3CC[C@@]21C: inactive
NC(=O)N1c2ccccc2C=Cc2ccccc21: inactive
c1ccc2[nH]c(-c3cscn3)nc2c1: inactive
Nc1ccc(S(=O)(=O)c2ccc(N)cc2)cc1: inactive
CCC(=O)O[C@]1(C(=O)CCl)[C@@H](C)C[C@H]2[C@@H]3CCC4=CC(=O)C=C[C@]4(C)[C@@]3(F)[C@@H](O)C[C@@]21C: inactive
Nc1ccn([C@@H]2CS[C@H](CO)O2)c(=O)n1: inactive

Series 2
Structure (SMILES): CCCCCCCCNC(C)C(O)c1ccc(SC(C)C)cc1 (centres unmarked)
Cell line: MCF7
Technique: microarray
Tested at: concentration not given
Quantity: fold change
refers to: MAFF mRNA (probe 36711_at); reference: vehicle (DMSO): 14
refers to: SYNGR3 mRNA; reference: DMSO: 1.94
refers to: ISG20 mRNA (probe 33304_at); reference: vehicle (DMSO): 2.23

Series 3
Host: human
Quantity: therapeutic concentration
COc1cc2c(cc1OC)[C@H]1C[C@@H](OC(=O)[C@@H](N)C(C)C)[C@H](CC(C)C)CN1CC2: 2190 nM
COc1cc2c(cc1OC)C1CC(=O)C(CC(C)C)CN1CC2 (centres unmarked): 0.99 nM
Cc1ccc(C(=O)c2cc(O)c(O)c([N+](=O)[O-])c2)cc1: 21000 nM

Other studies, line by line
O=C(N[C@H]1CCCCC/C=C\C2C[C@@]2(C(=O)O)NC(=O)[C@@H]2C[C@@H](Oc3ccncc3)CN2C1=O)OC1CCCC1 (some centres unmarked) — IC50 (HCV NS3; biochemical): 4.87 µM
Cc1cccc(C#Cc2ccccc2)n1 — Kd (binding, radioligand binding; whole brain): 0.0795 µM
CC(C)(O)c1cncc(-c2nc3ccc(F)cc3n2C2CC2)c1 — IC50 (ADRB1; radioligand binding): 9.62 µM
CNC(=O)[C@@]12C[C@@H]1[C@@H](n1cnc3c(NC)nc(C#Cc4ccc(F)c(F)c4)nc31)[C@H](O)[C@@H]2O — Ki (β3; radioligand binding): 1 to 10 µM
C[C@]12CC[C@@H]3c4ccc(O)cc4CC[C@H]3[C@@H]1CC[C@@H]2O (single isomer, unassigned) — AC50 (estrogen receptor alpha; receptor activity, agonist; ToxCast): 0.077 nM
CC(=O)Oc1ccccc1C(=O)Nc1ncc([N+](=O)[O-])s1 — EC50 (Cryptosporidium parvum; parasite growth): 3.8 µM
CNC(=O)[C@@]12C[C@@H]1[C@@H](n1cnc3c(NCc4cccc(Cl)c4)nc(C#Cc4ccc(F)c(F)c4)nc31)[C@H](O)[C@@H]2O — Ki (5-hydroxytryptamine receptor 2C (HTR2C, Homo sapiens, UniProt P28335); radioligand binding): 5.8 µM
CN(C)c1ncnc(-c2ccc3nc(Nc4cc(CN5CCN(C(=O)CC(F)(F)F)CC5)ccn4)[nH]c3c2)c1Cl — IC50 (TBK1; biochemical; high ATP): > 20 µM
CS(=O)(=O)c1ncn2c(NCc3c(F)ccc4c3CCO4)ncc(-c3ccc(C4CC4)nc3)c12 — AUC (mouse; oral, 10 mg/kg): 6000 ng·h/mL
COc1cc(-c2cn(C3CCc4c(F)cccc4N(CC(F)(F)F)C3=O)nn2)ccc1-n1cnc(C)c1 (centres unmarked) — IC50 (gamma-secretase complex (human); cellular activity): < 0.1 µM
CC1CS(=O)(=O)CCN1/N=C/c1ccc([N+](=O)[O-])o1 (centres unmarked) — IC50 (Trypanosoma cruzi; L6E9 rat myoblasts, amastigote): 2.8 µM
CCCCC/C=C\C[C@@H](O)/C=C/C=C/C=C\[C@@H](O)CCCC(=O)O — Km (human CYP4F3A; metabolism, substrate; insect cell microsomes): 0.68 µM
N#CSCCOc1ccc(Oc2ccccc2)cc1 — IC50 (Trypanosoma cruzi; parasite growth; rat L6E9 myoblasts, amastigote): 12 µM
COc1cc2c(cc1OC)C1CC(O)C(CC(C)C)CN1CC2 (centres unmarked) — Kd (binding, radioligand binding; rat forebrain): 0.0026 µM
O=C(NCc1c(F)cc(F)cc1F)c1cn2c(c(O)c1=O)C(=O)N1[C@H]3CC[C@H](C3)O[C@@H]1C2 — paEC95 (HIV-1): 0.162 µg/mL

Some of these lines once more (series 1):
Cc1cn([C@H]2C=C[C@@H](CO)O2)c(=O)[nH]c1=O: inactive
Cc1[nH]cnc1CN1CCc2c(c3ccccc3n2C)C1=O: inactive
c1ccc2c(CC3=NCCN3)cccc2c1: inactive
Cl.O=C1[C@H]2CCCC[C@H]2C(=O)N1CCCCN1CCN(c2nsc3ccccc23)CC1: inactive
